Measurements gathered from unrelated publications.
Numbered parts are unrelated; each lists some results of a single study.

Set 1 — method: universal PBM; molecule type: double-stranded DNA, one strand shown; matrix: in vitro; tested at: 600 nM; direction: higher = stronger binding
Target: Sal-like protein 4, full length isoform A (SALL4, Homo sapiens, UniProt Q9UJQ4, residues 1-1053)
UniProt Q9UJQ4, sequence (whole entry, looked up): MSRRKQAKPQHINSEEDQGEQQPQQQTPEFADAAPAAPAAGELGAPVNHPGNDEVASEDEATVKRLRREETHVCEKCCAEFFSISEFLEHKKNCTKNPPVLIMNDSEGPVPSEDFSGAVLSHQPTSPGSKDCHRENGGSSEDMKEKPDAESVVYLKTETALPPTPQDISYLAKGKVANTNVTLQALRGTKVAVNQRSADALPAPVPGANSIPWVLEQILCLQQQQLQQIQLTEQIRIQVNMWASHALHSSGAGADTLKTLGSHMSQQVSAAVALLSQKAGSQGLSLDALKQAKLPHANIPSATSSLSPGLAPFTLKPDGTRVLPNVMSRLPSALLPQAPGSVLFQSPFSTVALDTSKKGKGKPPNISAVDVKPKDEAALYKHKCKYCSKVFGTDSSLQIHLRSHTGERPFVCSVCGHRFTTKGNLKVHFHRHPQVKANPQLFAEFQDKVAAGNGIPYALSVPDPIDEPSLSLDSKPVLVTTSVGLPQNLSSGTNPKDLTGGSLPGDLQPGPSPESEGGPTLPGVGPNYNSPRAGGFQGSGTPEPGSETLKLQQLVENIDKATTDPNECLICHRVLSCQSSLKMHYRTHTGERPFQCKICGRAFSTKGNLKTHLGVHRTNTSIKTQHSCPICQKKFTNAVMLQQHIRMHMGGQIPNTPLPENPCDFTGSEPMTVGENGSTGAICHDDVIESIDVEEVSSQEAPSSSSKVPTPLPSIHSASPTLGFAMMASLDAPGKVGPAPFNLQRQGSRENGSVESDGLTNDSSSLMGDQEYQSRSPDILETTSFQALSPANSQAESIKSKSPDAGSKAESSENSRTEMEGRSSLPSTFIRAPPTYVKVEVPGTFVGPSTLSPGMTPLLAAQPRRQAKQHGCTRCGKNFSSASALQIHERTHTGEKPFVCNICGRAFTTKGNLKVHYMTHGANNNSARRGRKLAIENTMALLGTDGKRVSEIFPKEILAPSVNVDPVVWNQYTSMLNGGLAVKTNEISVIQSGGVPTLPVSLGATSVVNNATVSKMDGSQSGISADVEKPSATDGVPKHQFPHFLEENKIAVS
Setting: 8-mer, flanks averaged, mean of replicates
The E-score of `ACATGACT` is reported as -0.0325.
For `CAATGGAC`, the E-score was 0.0721.
With `TAGTTGAA` the E-score was 0.259.
`ATTGTTGC` gave an E-score of 0.152.
For `CGTCGCAC`, the E-score was -0.218.
For `AACTCATG`, the E-score was 0.169.

Set 2 — method: competition protein-binding microarray; molecule type: double-stranded DNA, one strand shown; matrix: in vitro; tested at: 2 µM; added: Pho4 competitor, 0.05 µM; direction: higher = stronger binding
Target: Centromere-binding protein 1, full length, His-tagged (CBF1, Saccharomyces cerevisiae, UniProt P17106, residues 1-351)
UniProt P17106, sequence (whole entry, looked up): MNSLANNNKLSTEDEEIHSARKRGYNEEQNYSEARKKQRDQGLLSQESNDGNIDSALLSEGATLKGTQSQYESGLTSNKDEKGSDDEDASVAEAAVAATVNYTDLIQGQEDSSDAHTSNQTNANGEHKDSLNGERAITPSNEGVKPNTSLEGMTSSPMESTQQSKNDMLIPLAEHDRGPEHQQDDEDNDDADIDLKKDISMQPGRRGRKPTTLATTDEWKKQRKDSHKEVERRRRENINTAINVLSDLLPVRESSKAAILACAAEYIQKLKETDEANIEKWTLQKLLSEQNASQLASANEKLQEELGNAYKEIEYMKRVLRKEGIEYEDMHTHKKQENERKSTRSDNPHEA
Setting: whole 60-bp probe, lowest competitor level
With `CGTCCTAGTGATTTTCACGTGGAGTCCATGAGGAAGGTCTTGATTCGCTTGACGCTGCTG` the fluorescence intensity was 472 a.u.
`GCCGCCATTCCCCATCACAATTTTGGGCAGGATAGGGTCTTGATTCGCTTGACGCTGCTG` gave a fluorescence intensity of 70.7 a.u.
`CCAGTGATTGCGTCCCACGCTCGTTACTGGTTCCTGGTCTTGATTCGCTTGACGCTGCTG` has a fluorescence intensity of 60.3 a.u.
`GCCGCTGCACAATCTGGCGTGCCAGTAAAGCAATATGTCTTGATTCGCTTGACGCTGCTG` has a fluorescence intensity of 99.5 a.u.

Set 3 — method: protein binding microarray; molecule type: double-stranded DNA, one strand shown; matrix: in vitro; tested at: not given; baseline: not given; direction: higher = stronger binding
Target: Histone acetyltransferase KAT6A, winged helix 1, GST fusion (KAT6A, Homo sapiens, UniProt Q92794, residues 1-85)
Setting: 8-mer, flanks averaged, mean of 2 arrays, mostly near background
Target sequence (chain): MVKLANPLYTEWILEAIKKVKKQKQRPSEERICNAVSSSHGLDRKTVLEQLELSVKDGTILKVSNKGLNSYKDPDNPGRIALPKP
`ACTTGTGC` gave an E-score of -0.0714.
For `AGGTGCCC`, the E-score was 0.063.
The E-score of `AACGATAA` is reported as 0.0232.
For `ATGTCATC`, the E-score was -0.119.
The E-score of `ACAGTAAT` is reported as -0.0642.

Further values, each from its own experiment
For `PhoQ, residues 284 288 289 292 302 303 TLASMF`, the fold induction was 1.1 (PhoP, residues 12 14 15 18 19 LYHSL (Escherichia coli, UniProt P23836); Sort-seq, measured: YFP reporter; E. coli; PhoQ-PhoP variant library, added: 10 µM Mg2+; baseline: high Mg2+ state, higher = stronger signaling).

Excerpt of the above (set 1):
`ATTGTTGC` gave an E-score of 0.152.
For `CGTCGCAC`, the E-score was -0.218.
